Results pooled from the literature.
Compare with care: the assays were run in different laboratories. ± gives the spread as reported.
CBF1: CBF1 1-351 (Saccharomyces cerevisiae, UniProt P17106)
Chain of UniProt P17106 (whole entry, looked up): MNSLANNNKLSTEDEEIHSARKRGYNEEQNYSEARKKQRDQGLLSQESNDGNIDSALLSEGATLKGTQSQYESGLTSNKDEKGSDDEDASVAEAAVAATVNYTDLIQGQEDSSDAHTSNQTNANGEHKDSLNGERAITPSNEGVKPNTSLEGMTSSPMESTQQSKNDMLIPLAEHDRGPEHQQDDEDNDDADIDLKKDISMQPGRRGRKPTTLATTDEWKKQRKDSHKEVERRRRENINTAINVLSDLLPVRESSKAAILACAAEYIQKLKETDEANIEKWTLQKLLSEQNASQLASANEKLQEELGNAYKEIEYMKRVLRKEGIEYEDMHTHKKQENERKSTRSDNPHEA
PARP1: PARP1 1-1014 (Homo sapiens, UniProt P09874)
Chain of UniProt P09874 (whole entry, looked up): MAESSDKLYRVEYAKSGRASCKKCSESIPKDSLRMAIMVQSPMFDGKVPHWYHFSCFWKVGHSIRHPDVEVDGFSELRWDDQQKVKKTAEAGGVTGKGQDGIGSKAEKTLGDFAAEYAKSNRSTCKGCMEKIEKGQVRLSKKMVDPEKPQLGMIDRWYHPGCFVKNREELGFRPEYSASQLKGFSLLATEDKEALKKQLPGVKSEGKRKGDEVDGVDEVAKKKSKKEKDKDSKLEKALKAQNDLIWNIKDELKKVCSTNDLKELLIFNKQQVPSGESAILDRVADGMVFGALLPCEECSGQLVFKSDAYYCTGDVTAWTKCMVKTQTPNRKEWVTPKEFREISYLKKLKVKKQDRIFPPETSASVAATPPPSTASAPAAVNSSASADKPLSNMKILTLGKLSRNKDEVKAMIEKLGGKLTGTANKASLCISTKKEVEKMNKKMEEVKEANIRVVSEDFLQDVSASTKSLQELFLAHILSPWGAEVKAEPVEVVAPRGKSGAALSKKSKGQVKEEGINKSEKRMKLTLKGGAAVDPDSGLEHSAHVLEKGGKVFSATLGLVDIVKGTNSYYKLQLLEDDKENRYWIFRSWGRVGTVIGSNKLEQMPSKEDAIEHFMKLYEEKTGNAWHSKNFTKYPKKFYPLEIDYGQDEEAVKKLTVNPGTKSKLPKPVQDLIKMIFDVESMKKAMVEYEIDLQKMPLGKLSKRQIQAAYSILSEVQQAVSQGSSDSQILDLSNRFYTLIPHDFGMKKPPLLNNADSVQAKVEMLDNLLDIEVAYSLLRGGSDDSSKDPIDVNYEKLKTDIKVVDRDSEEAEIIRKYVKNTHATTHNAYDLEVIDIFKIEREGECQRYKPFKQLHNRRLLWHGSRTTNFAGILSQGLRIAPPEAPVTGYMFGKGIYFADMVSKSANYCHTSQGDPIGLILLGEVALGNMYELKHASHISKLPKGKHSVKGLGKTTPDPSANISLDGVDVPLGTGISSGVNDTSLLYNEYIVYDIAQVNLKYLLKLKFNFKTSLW
U2AF2: U2AF2 148-342 (Homo sapiens, UniProt P26368)
Chain of UniProt P26368 (whole entry, looked up): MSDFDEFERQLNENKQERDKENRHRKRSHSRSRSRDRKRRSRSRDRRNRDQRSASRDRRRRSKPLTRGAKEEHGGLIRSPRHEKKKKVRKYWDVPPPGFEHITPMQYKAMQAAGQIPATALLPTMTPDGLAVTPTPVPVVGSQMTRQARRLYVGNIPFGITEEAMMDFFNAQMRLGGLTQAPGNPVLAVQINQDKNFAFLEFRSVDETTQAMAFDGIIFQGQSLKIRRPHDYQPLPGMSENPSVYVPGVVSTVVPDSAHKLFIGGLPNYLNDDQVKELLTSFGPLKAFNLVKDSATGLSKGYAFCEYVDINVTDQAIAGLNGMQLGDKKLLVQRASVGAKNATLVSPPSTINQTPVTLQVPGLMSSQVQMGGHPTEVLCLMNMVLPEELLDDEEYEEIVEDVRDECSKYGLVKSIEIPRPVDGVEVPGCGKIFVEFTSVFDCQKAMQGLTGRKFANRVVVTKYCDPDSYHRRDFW
nac full length assumed: nac full length assumed (Escherichia coli, UniProt Q47005)
Chain of UniProt Q47005 (whole entry, looked up): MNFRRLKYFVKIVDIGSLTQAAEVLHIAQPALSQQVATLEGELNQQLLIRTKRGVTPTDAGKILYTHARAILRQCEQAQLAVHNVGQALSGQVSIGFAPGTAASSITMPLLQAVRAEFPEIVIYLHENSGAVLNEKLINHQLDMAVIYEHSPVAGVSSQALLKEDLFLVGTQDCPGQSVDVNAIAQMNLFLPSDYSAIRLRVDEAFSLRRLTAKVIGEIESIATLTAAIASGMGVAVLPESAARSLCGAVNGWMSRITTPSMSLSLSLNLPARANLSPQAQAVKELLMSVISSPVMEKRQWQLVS
SPT15 full length assumed: SPT15 full length assumed (Saccharomyces cerevisiae, UniProt P13393)
Chain of UniProt P13393 (whole entry, looked up): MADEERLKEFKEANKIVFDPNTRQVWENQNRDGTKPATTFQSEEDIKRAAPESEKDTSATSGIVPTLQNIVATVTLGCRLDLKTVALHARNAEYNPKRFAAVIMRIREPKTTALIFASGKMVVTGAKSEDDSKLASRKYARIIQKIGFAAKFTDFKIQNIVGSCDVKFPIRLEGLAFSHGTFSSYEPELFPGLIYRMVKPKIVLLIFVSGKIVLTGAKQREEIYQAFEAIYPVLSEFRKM
CBF1 full length assumed: CBF1 full length assumed (Saccharomyces cerevisiae, UniProt P17106)
PHO4: PHO4 1-312 (Saccharomyces cerevisiae, UniProt P07270)
Chain of UniProt P07270 (whole entry, looked up): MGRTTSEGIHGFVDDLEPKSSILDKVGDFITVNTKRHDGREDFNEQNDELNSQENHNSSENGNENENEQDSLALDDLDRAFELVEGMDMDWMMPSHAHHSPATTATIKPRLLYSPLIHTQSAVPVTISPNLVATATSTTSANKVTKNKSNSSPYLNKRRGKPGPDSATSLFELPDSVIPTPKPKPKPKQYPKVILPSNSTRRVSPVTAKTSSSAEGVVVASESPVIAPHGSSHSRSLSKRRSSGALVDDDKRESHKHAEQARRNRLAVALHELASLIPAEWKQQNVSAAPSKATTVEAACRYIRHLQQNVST
ulaR full length assumed: ulaR full length assumed (Escherichia coli, UniProt P0A9W0)
Chain of UniProt P0A9W0 (whole entry, looked up): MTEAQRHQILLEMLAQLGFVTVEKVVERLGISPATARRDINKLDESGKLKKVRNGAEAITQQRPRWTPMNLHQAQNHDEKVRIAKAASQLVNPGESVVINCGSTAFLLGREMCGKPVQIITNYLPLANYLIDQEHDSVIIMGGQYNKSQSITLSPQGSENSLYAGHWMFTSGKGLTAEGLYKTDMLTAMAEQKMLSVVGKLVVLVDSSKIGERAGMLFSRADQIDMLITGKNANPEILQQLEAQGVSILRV
CIN5 full length assumed: CIN5 full length assumed (Saccharomyces cerevisiae, UniProt P40917)
Chain of UniProt P40917 (whole entry, looked up): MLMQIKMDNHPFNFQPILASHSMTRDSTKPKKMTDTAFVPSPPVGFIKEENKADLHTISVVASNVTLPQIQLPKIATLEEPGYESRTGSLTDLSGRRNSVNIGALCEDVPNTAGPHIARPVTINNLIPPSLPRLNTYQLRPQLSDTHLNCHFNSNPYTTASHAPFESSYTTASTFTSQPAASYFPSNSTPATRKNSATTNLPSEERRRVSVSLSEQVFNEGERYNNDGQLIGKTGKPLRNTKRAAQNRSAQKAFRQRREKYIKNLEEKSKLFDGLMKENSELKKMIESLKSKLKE
T1: TOA1/TOA2 1-286; 1-122 (Saccharomyces cerevisiae); chain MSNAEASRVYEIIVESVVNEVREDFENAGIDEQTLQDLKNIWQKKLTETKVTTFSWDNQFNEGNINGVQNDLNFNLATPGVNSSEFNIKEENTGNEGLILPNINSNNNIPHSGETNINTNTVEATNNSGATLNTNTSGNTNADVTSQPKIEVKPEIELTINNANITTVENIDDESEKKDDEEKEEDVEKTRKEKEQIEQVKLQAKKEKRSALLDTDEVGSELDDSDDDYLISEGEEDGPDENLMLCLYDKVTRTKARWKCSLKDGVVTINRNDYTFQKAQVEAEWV; chain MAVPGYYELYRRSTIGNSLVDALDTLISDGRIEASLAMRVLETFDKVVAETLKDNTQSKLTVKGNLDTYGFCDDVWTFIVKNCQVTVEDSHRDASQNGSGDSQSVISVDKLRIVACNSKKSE
Chain of UniProt P15976 (whole entry, looked up): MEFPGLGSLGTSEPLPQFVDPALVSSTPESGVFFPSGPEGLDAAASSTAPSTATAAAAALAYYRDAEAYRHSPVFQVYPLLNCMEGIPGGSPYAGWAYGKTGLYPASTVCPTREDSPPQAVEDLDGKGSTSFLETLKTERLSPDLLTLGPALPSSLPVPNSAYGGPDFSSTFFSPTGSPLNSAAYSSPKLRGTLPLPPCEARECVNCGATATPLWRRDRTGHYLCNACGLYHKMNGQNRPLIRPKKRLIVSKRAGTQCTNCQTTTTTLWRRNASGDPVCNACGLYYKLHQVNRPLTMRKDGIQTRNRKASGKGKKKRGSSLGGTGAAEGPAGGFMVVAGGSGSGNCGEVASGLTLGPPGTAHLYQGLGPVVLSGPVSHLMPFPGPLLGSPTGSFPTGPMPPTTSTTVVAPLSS
Chain of UniProt Q07955 (whole entry, unmodified, looked up): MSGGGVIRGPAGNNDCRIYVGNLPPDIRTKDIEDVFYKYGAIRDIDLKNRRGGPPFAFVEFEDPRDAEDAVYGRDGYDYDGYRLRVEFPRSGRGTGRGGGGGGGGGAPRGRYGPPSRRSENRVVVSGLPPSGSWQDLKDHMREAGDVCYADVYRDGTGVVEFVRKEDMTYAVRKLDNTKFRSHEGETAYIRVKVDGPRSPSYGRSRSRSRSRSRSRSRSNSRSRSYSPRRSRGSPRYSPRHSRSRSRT
Chain of UniProt Q9N5M6 (whole entry, looked up): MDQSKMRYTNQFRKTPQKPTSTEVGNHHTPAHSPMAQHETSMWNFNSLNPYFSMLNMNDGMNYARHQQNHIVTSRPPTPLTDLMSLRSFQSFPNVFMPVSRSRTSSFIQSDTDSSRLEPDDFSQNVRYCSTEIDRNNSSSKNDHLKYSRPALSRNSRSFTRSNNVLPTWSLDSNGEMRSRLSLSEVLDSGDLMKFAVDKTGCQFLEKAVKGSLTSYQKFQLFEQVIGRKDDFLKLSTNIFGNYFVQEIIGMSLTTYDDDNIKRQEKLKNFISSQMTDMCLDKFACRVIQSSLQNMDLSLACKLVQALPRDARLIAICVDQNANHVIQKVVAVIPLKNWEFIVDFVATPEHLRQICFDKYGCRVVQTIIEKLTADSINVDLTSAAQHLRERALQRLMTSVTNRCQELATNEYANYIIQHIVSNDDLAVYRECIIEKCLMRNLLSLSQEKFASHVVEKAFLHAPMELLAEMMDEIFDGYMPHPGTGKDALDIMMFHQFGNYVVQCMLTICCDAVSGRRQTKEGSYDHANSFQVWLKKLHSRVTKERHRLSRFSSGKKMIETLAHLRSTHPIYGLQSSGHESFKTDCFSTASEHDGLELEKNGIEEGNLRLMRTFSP
Chain of UniProt P29055 (whole entry, looked up): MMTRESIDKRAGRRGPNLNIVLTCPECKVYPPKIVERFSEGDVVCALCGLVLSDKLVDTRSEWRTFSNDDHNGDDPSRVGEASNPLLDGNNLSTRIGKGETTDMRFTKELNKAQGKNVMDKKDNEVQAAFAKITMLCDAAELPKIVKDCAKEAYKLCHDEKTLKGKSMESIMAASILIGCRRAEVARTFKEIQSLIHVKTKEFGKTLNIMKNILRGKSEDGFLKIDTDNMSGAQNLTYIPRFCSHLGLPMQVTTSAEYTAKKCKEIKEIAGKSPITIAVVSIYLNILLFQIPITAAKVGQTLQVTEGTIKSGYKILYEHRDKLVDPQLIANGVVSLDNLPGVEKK

| Oligonucleotide | target | technique | form | setting | Kd [nM] |
| --- | --- | --- | --- | --- | --- |
| CAATACACTGTTATCAGACACACGTGTCGATCTACTCGTTCGGTTATCCGGCGGTATGAC (dsDNA) | CBF1 | MITOMI | double-stranded DNA, one strand shown | not purified | 195 ± 9 |
| CTTGACCAATGC (dsDNA) | BCL11A 737-795 (Homo sapiens, UniProt Q9H165) | ITC | double-stranded DNA, one strand shown | – | 225 ± 19 |
| CGGCAGGACGUACAUCCCUCCCGGCUCCCCUCCCGCUGGCCUGCCG (RNA; extended stem-loop) | PARP1 | fluorescence polarization | folded RNA | Hill coefficient 1.07 | 42 ± 2.7 |
| UCAUGUCUU (ssRNA) | U2AF2 | sequencing of bound RNA | RNA | motif only | 7030 |
| CCCCCGCGCCTACGCAAGTTTTCCGGATCCGTCCATCAAGTCAATCGGTCC (dsDNA; 5'-amino-C6 primer) | T1, TOA1/TOA2 1-286; 1-122 (Saccharomyces cerevisiae) | array | double-stranded DNA, one strand shown | TFIIA alone | 93.1 ± 32.4 |
| CATTCGCCGGCTATAAGTAAATCTTATGGAACTCATCATAAATGAGACTTTTACCTTATGA (dsDNA) | nac full length assumed | BLI | double-stranded DNA, one strand shown | – | 2.49 |
| CAATACACTGTTATCAAACACACGTGTCGAGCTACTCGTTCGGTTATCCGGCGGTATGAC (dsDNA) | CBF1 | MITOMI | double-stranded DNA, one strand shown | not purified | 204 ± 13 |
| TTTGCGTGGGCTGTGGTGCTTT (ssDNA) | traI 309-858 (Escherichia coli, UniProt P14565) | fluorescence titration | single-stranded DNA | – | 6.9 ± 1.3 |
| GAUACAGAGAAGA (ssRNA) | SART3 697-786 (Homo sapiens, UniProt Q15020) | ITC | RNA | – | 850 ± 180 |
| CUUAAUGAU (ssRNA) | U2AF2 | sequencing of bound RNA | RNA | motif only | 1560 |
| DNA AGAGTGCGACACCTGATTCC / RNA GGAAUCAGGUGUCGCACUCU (DNA:RNA) | RNase HIII tandem 1-81 domains L52M (Geobacillus stearothermophilus, UniProt Q6L6Q4) | fluorescence anisotropy | DNA-RNA hybrid | – | 91 ± 10 |
| RNA 1 GCAGUAGGGUGAGGGUGUUGGCAGGGAGCGCCCUCCCCCAUAGUGU / RNA 2 ACACUAUGGGGGAGGGCGCUCCCUGCCAACACCCUCACCCUACUGC (dsRNA) | PARP1 | fluorescence polarization | double-stranded RNA | Hill coefficient 0.67 | 188 ± 30 |
| GAATTCCTAAAAAGTAATGTGGAGCTCCGTTCGTCTCAAGTCAATCGGTCC (dsDNA; 5'-amino-C6 primer) | SPT15 full length assumed | array | double-stranded DNA, one strand shown | TBP alone | 31.9 ± 2.66 |
| CGCCACGTGGTGACGTGGTTACGTGTAGACGTGTATACGTGTCCACGTGTCGACGCTCCGGCGGTATGAC (dsDNA) | CBF1 full length assumed | MITOMI | double-stranded DNA, one strand shown | not purified | 58 ± 5 |
| CAATACACTGTTATCAGACACACGTGTCGTGCTACTCGTTCGGTTATCCGGCGGTATGAC (dsDNA) | PHO4 | MITOMI | double-stranded DNA, one strand shown | not purified | 135 ± 3 |
| AUCCUUUUA (ssRNA) | U2AF2 | sequencing of bound RNA | RNA | motif only | 9330 |
| AGCGTCACAGACATGAAATTGGTAAGACCAATTGACTTCGGCAAGTGGCTTAAGACAGGAA (dsDNA) | ulaR full length assumed | BLI | double-stranded DNA, one strand shown | – | 3520 |
| TCCTGAAGGGGCGCCCTAGCTTGGTCCTATCGTCGTCAAGTCAATCGGTCC (dsDNA; 5'-amino-C6 primer) | SPT15 full length assumed | array | double-stranded DNA, one strand shown | TBP alone | 1.53 ± 0.14 |
| GUUAUUUUU (ssRNA) | U2AF2 | sequencing of bound RNA | RNA | motif only | 1170 |
| CGCTATTTACGTCACTACGTCAGCACGTCAGGACGTCAGTACGTCATCACGTCATCTCCGGCGGTATGAC (dsDNA) | CIN5 full length assumed | MITOMI | double-stranded DNA, one strand shown | not purified | 330 ± 20 |
| TCCTGAAGGAGCGCCTATAAAAGGTCCTATCGTCGTCAAGTCAATCGGTCC (dsDNA; 5'-amino-C6 primer) | SPT15 full length assumed | array | double-stranded DNA, one strand shown | TBP alone | 3.78 ± 0.38 |
| CATTCGCGCATTATAAGTAATGGTCATGGAACTCATCATAAATGAGACTTTTACCTTATGA (dsDNA) | nac full length assumed | BLI | double-stranded DNA, one strand shown | – | 20.2 |
| GCAUUUCAU (ssRNA) | U2AF2 | sequencing of bound RNA | RNA | motif only | 16100 |
| CAATACACTGTTATCAGTCACACGTGTCGAGCTACTCGTTCGGTTATCCGGCGGTATGAC (dsDNA) | CBF1 | MITOMI | double-stranded DNA, one strand shown | not purified | 217 ± 13 |

| Oligonucleotide | target | technique | form | setting | Kd [nM] |
| --- | --- | --- | --- | --- | --- |
| UUCAGAGGA (ssRNA) | SRSF1 1-196 (Homo sapiens, UniProt Q07955) | fluorescence polarization | RNA | – | 104 ± 3 |
| GGTAACTTAGCGTCTCGTTGTGATTAAGTTTGACGAGGAATGGAATGCGATGCGCATAACG (dsDNA) | ulaR full length assumed | BLI | double-stranded DNA, one strand shown | – | 18.4 |
| AUCAUGUGCCAUAC (ssRNA) | fbf-1 162-614 (Caenorhabditis elegans, UniProt Q9N5M6) | EMSA | RNA | – | 41 |
| CCATCGCTACC (dsDNA; blunt, cis-N2-BPDE-dG at position 6) | HMGB3 full length assumed (Homo sapiens, UniProt O15347) | fluorescence anisotropy | double-stranded DNA, one strand shown | – | 6 ± 0.9 |
| CUUCUAUCU (ssRNA) | U2AF2 | sequencing of bound RNA | RNA | motif only | 16600 |
| CAATACACTGTTATCCGACACACGTGTCGAGCTACTCGTTCGGTTATCCGGCGGTATGAC (dsDNA) | CBF1 | MITOMI | double-stranded DNA, one strand shown | not purified | 166 ± 8 |
| AUUCUAUUU (ssRNA) | U2AF2 | sequencing of bound RNA | RNA | motif only | 670 |
| GGTGAGGGTACTTATGCGGTTGTTTACTTGGGTTGTCAAGTCAATCGGTCC (dsDNA; 5'-amino-C6 primer) | SPT15 full length assumed | array | double-stranded DNA, one strand shown | TBP alone | 1.94 ± 0.11 |
| CAATACACTGTTATCAGACACACGTGTAGAGCTACTCGTTCGGTTATCCGGCGGTATGAC (dsDNA) | PHO4 | MITOMI | double-stranded DNA, one strand shown | not purified | 197 ± 8 |
| GGAGAGGCUGAGACUAACCCAGAAACAUCCAAUUCUCAAACUGAAGCUCGCACUCUCCC (RNA; hairpin) | GATA1 200-319 (Homo sapiens, UniProt P15976) | fluorescence anisotropy | folded RNA | – | 16 ± 2 |
| CGCGTCGACGTGTCTACGTGTGCACGTGTGGACGTGTGTACGTGTTCACGTGTTGCTCCGGCGGTATGAC (dsDNA) | CBF1 full length assumed | MITOMI | double-stranded DNA, one strand shown | not purified | 33 ± 3 |
| CCTGCGGTATTGACACTTGAGGGGCGCGACTACTGACAGATGAGGGGCGCGATCCTTGACACTTGAGGGGCAGAGTGATGACAGATGAGGGGCGCACCTATTGACATTTGAGGGGCTGTCCACAGGCAG (dsDNA) | trfA 98-382 G254D/S267L/K303E (Escherichia coli, UniProt P07676) | SPR | double-stranded DNA, one strand shown | – | 1.45 |
| CGCGACAACGTGAGAACGTGATAACGTGCCAACGTGCGAACGTGCTAACGTGGCACTCCGGCGGTATGAC (dsDNA) | PHO4 full length assumed (Saccharomyces cerevisiae, UniProt P07270) | MITOMI | double-stranded DNA, one strand shown | not purified | 140 ± 10 |
| CCACACTGTTACATAAGTTAATCTTAGGTGAAATACCGACTTCATAACTTTTACGCATTAT (dsDNA) | nac full length assumed | BLI | double-stranded DNA, one strand shown | – | 5.78 |
| CGCACCTAATGACGCAATGACGGAATGACGTAATGACTCAATGACTGAATGACTTCTCCGGCGGTATGAC (dsDNA) | CIN5 full length assumed | MITOMI | double-stranded DNA, one strand shown | not purified | 900 ± 70 |
| CAGAGGATGTGGCTTC (dsDNA) | RUNX2 111-287 (Homo sapiens, UniProt Q13950) | fluorescence anisotropy | double-stranded DNA, one strand shown | Mg2+ 5 mM | 1200 ± 390 |
| TATTATTGGCACTTCTGTATAACTGGCTTTCATTCTCAAGTCAATCGGTCC (dsDNA; 5'-amino-C6 primer) | SPT15 full length assumed | array | double-stranded DNA, one strand shown | TBP alone | 1.93 ± 0.12 |
| CAATACACTGTTATCTGACACACGTGTCGAGCTACTCGTTCGGTTATCCGGCGGTATGAC (dsDNA) | PHO4 | MITOMI | double-stranded DNA, one strand shown | not purified | 153 ± 4 |
| DNA 1 CTAATATACACGGATACAAAAGAAATACACATAATTCAATTCAATCGGTCC / DNA 2 GGACCGATTGACTTGAATTATGTGTATTTCTTTTGTATCCGTGTATATTAG (dsDNA; blunt; C:T mismatch; 5'-amino-C6 primer) | SUA7 full length assumed (Saccharomyces cerevisiae, UniProt P29055) | array | double-stranded DNA | TFIIB alone | 2.69 ± 0.9 |
| UCUUAUUUU (ssRNA) | U2AF2 | sequencing of bound RNA | RNA | motif only | 8590 |
| TTGACAAAATTTGAAAGTTGGAAAAATTTTCCAATAAATAGAGGTAGGAATAAAATGGCAA (dsDNA) | pdhR full length assumed (Escherichia coli, UniProt P0ACL9) | BLI | double-stranded DNA, one strand shown | – | 190 |
| CAATACACTGTTATCAGACACACGTGTTGAGCTACTCGTTCGGTTATCCGGCGGTATGAC (dsDNA) | PHO4 | MITOMI | double-stranded DNA, one strand shown | not purified | 138 ± 4 |
| CTCAATCAATTTGTGAAGGTATAACTGTAGCCGTGTCAAGTCAATCGGTCC (dsDNA; blunt; 5'-amino-C6 primer) | SPT15 full length assumed | EMSA | double-stranded DNA, one strand shown | – | 37 ± 21 |

Repeated from above:
| Oligonucleotide | target | technique | form | setting | Kd [nM] |
| --- | --- | --- | --- | --- | --- |
| RNA 1 GCAGUAGGGUGAGGGUGUUGGCAGGGAGCGCCCUCCCCCAUAGUGU / RNA 2 ACACUAUGGGGGAGGGCGCUCCCUGCCAACACCCUCACCCUACUGC (dsRNA) | PARP1 | fluorescence polarization | double-stranded RNA | Hill coefficient 0.67 | 188 ± 30 |
| GAATTCCTAAAAAGTAATGTGGAGCTCCGTTCGTCTCAAGTCAATCGGTCC (dsDNA; 5'-amino-C6 primer) | SPT15 full length assumed | array | double-stranded DNA, one strand shown | TBP alone | 31.9 ± 2.66 |
| CGCCACGTGGTGACGTGGTTACGTGTAGACGTGTATACGTGTCCACGTGTCGACGCTCCGGCGGTATGAC (dsDNA) | CBF1 full length assumed | MITOMI | double-stranded DNA, one strand shown | not purified | 58 ± 5 |
| CAATACACTGTTATCAGACACACGTGTCGTGCTACTCGTTCGGTTATCCGGCGGTATGAC (dsDNA) | PHO4 | MITOMI | double-stranded DNA, one strand shown | not purified | 135 ± 3 |
